# Measured values pooled from the literature.
# Each numbered part is a random draw from the data of one study; scales do not carry over between parts. Substitutions count along the parent as printed.

# Study 1
# Target: UDP-N-acetylglucosamine--peptide N-acetylglucosaminyltransferase 110 kDa subunit (OGT, Homo sapiens, UniProt O15294)
# Chain of UniProt O15294 (whole entry, looked up): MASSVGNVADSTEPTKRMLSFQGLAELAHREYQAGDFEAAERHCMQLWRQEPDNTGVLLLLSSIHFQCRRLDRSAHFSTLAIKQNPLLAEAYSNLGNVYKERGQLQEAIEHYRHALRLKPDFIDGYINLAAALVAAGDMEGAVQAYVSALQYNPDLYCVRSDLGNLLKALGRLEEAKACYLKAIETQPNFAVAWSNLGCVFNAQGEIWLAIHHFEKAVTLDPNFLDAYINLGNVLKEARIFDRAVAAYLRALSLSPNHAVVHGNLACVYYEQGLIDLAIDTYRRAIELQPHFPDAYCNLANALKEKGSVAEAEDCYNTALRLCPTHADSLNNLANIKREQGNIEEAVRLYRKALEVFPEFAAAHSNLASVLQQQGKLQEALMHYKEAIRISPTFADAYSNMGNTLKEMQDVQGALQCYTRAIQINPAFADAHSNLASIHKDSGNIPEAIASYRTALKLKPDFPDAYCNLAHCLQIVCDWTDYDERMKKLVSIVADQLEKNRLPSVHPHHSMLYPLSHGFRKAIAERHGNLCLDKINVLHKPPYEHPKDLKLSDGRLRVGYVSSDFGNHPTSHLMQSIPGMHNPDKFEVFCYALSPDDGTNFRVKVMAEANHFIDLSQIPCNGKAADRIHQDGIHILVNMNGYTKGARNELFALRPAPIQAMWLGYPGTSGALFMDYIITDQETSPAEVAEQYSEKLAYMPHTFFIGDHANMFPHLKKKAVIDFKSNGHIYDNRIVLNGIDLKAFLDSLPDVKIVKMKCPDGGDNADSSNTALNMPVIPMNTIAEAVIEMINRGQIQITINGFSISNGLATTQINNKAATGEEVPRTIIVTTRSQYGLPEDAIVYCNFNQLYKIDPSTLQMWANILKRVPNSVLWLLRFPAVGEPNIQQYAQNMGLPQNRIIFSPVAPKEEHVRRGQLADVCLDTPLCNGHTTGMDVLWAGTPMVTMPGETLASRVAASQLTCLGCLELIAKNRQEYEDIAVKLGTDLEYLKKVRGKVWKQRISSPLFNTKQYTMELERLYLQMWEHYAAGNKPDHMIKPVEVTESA
# Effect on: binding
# Technique: phage display NGS
# Form: peptide
# Tested at: concentration not given
# Setting: panning round 2
# Reference: input library
Sequence,enrichment fold change
HMPWTHHYAKPYHVG,12.4
SYYRHDHVPQFYNKW,2.97
HLRTHRVDHHYYVYD,4.54
QVFPPEYWIEYNMV,7.4
TQFHNHHARDWSKQT,5.92
YEPMYLPQYQMIWNK,30
VWPPQNHVHSEMMRH,4.46
GFMPVYEIYFTRSDE,9.06
ERVYDPMYQIRIDFT,4.13
HQAHHNMQWFQQDHV,5.24
HQHPHGQYKEQIGHY,7.15
NDMFAPKYQLTWREF,41.4

# Study 2
# Target: tungstate, free oxyanion
# Technique: microfluidic competitive inhibition
# Matrix: in vitro, cell-free expressed
# Tested at: not given
# Setting: derived from inhibition constants, unchanged parent 2230 nM
# Direction: lower = stronger binding
# Starting sequence: PafA, mature enzyme, eGFP fusion (Elizabethkingia meningoseptica, UniProt Q9KJX5); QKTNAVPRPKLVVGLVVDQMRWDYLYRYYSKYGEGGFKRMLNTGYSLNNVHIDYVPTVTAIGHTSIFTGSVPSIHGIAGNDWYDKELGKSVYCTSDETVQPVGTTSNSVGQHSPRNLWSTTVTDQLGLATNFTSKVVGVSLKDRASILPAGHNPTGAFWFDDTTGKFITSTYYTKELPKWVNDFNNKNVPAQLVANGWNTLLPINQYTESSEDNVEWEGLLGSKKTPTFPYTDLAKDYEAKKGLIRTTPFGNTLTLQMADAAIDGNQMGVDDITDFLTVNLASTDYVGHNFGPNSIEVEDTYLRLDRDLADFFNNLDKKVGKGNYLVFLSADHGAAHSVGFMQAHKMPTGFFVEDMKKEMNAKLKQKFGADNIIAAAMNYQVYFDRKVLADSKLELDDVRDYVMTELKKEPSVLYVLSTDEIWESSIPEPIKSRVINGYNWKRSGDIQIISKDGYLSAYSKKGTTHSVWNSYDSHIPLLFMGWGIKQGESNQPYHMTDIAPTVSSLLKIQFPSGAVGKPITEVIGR
Change,oxyanion analog dissociation constant
P293V,2.58 µM
V320A,1.88 µM
G369V,3.34 µM
K346G,1.67 µM
Q492V,2.51 µM
M360G,2.26 µM
W118G,893 nM
P101G,1.79 µM
D391G,2.33 µM
H112V,1.1 µM
K318V,2.38 µM
K357G,2.31 µM
S490G,2.32 µM
I524G,1.7 µM

# Study 3
# Target: CCNE1, cyclin fold, Cln2 fusion (human)
# Technique: yeast growth competition, sequencing
# Matrix: yeast
# Setting: strong parent motif
# Reference: not given
# Direction: higher = stronger binding
# Starting sequence: viral docking peptide; PGASRRLFGSSAD
Change,normalised enrichment score
G9A,2.07
R5K,0.378
P1A,0.834
G2A,0.982
S10A,1.11
R5A L7A,0.353
S4A,2.14

# Study 4
# Target: HLF, bZIP domain (human)
# Technique: DHFR protein complementation
# Matrix: yeast
# Setting: single substitutions, most at no-binding floor
# Reference: wild-type JUN-FOS pair
# Direction: higher = stronger binding
# Starting sequence: JUN, bZIP domain (human); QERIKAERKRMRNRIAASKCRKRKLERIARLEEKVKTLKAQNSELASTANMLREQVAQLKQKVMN; partner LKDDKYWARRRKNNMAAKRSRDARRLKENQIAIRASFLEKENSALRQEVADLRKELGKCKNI
Change,binding fitness [natural log]
I28Q,-1.43
L45I,-1.49
A40T,-1.27
S47I,-1.45
V35H,-1.56
L38T,-1.47
T37W,-1.27
N42C,-1.52

# Repeated from above (study 2):
Change,oxyanion analog dissociation constant
S490G,2.32 µM
G369V,3.34 µM
W118G,893 nM
I524G,1.7 µM
